# Published values of several laboratories.
# Every numbered part comes from another study and shows a few of its results, in no order. Positions count from the first letter of the parent shown.
# Sequence of UniProt Q9BVS4 (whole entry, looked up): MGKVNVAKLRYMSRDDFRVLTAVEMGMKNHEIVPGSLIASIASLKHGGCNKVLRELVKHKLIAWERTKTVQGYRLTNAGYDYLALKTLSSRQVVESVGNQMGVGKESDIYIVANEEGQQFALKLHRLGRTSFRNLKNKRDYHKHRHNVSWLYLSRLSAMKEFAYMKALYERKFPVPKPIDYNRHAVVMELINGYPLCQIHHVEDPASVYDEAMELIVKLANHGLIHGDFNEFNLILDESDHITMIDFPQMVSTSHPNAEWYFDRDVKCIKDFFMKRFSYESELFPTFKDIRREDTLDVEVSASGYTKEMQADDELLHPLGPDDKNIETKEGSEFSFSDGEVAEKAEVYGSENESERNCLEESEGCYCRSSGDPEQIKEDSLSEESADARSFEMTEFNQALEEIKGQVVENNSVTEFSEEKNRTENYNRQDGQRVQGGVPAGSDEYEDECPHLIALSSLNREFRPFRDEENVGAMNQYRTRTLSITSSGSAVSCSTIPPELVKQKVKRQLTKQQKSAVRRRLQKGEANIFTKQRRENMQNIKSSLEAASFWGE
# Sequence of UniProt Q9NSY1 (whole entry, looked up): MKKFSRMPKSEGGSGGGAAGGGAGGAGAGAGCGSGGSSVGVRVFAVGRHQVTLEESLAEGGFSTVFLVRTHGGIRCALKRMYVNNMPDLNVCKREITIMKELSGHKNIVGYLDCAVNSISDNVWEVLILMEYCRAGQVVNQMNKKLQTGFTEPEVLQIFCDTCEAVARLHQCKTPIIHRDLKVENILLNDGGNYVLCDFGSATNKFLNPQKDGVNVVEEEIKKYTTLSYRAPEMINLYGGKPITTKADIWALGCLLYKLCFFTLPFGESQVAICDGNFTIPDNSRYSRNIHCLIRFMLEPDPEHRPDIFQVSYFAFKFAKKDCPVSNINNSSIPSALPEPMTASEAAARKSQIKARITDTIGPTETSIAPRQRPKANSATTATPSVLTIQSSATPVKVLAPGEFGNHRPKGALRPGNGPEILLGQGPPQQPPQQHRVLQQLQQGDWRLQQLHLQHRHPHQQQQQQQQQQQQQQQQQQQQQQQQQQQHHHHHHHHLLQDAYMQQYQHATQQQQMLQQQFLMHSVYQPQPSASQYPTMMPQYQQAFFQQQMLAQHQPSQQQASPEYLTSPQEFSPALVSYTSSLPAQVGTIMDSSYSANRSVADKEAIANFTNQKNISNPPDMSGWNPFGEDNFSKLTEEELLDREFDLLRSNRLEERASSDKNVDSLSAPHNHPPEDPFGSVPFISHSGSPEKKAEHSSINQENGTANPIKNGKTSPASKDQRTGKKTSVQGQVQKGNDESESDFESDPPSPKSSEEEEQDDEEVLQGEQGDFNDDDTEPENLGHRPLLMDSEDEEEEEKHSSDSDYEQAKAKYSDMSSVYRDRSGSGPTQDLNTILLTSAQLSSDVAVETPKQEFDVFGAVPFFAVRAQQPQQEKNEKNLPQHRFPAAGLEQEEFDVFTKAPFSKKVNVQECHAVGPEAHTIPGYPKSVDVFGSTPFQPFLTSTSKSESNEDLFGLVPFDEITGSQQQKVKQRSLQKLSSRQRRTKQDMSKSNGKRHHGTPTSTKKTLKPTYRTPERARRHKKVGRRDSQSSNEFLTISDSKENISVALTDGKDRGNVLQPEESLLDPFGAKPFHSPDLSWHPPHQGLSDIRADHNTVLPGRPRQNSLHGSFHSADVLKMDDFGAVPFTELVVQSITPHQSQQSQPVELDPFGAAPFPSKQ
# Sequence of UniProt Q6ZWH5 (whole entry, looked up): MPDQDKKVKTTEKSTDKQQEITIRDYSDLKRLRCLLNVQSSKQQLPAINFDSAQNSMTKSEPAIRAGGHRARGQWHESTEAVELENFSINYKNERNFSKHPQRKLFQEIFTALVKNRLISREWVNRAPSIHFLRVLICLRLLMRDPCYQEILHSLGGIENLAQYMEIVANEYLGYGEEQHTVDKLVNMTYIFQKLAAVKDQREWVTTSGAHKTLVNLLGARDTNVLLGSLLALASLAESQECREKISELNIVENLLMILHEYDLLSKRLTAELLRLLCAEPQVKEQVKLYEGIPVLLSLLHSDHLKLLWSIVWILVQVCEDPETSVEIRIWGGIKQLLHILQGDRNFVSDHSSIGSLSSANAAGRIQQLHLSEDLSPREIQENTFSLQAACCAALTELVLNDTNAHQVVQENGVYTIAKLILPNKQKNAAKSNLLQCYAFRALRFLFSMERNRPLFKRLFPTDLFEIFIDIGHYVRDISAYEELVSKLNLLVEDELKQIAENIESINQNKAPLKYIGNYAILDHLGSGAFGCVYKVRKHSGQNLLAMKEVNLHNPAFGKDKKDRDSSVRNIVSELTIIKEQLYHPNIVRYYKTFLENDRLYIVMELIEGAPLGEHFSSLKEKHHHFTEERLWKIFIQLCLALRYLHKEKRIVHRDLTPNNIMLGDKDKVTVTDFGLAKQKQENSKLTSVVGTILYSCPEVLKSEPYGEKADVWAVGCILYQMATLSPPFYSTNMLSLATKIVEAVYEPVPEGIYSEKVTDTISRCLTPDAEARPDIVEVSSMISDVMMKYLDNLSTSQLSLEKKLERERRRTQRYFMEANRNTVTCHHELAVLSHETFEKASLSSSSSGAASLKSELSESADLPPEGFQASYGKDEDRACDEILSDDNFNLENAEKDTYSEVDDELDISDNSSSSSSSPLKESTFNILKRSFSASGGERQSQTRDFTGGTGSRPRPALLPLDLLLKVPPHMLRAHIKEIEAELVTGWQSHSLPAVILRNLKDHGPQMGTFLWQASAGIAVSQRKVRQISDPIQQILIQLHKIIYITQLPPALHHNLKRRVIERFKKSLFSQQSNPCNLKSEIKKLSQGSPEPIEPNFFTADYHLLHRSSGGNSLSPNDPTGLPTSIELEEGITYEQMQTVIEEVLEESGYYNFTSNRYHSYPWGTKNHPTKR
# Sequence of UniProt O94804 (whole entry, looked up): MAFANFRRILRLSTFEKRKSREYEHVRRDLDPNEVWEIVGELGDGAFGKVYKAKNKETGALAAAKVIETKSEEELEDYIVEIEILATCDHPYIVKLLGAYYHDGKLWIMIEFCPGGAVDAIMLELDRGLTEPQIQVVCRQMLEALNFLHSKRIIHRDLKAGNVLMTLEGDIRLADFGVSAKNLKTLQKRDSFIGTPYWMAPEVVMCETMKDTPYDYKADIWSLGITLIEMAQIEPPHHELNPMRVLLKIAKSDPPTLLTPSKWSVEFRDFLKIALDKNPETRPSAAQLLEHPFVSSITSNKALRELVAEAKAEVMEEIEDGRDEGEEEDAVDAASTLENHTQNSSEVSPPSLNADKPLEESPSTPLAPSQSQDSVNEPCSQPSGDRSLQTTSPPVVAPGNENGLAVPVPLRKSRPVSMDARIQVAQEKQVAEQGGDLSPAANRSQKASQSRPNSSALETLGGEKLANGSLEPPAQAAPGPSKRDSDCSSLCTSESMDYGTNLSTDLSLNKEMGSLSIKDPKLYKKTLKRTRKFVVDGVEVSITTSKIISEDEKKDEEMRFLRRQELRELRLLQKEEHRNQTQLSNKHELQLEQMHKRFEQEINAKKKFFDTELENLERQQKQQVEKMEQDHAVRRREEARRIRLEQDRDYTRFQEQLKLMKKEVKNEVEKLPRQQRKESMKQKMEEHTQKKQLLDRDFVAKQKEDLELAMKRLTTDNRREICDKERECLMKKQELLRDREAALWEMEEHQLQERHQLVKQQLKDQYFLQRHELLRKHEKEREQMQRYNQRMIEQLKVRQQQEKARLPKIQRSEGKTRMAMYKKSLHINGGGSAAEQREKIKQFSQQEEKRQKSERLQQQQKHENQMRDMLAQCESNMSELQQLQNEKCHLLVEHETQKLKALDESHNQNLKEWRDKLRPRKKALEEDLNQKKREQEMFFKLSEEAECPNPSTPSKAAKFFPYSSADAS
# Sequence of UniProt O95747 (whole entry, looked up): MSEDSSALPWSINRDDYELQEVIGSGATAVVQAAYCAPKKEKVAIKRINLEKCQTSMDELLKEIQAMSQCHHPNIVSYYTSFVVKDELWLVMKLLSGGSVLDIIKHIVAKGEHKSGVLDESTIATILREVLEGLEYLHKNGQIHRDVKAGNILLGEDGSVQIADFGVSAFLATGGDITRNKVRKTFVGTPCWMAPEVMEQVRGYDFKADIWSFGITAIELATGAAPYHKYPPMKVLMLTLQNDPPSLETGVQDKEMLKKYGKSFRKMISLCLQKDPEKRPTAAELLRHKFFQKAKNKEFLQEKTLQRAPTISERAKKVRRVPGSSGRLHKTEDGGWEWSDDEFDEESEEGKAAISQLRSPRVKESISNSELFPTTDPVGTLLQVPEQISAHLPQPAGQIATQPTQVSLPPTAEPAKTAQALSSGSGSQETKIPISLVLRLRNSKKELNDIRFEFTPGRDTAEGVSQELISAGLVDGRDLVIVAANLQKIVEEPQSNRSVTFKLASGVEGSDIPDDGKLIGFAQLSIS

# Series 1
# Structure (SMILES): COc1ccc2c(c1)O[C@H](c1ccc(OC)c(OC)c1)C[C@@H]2NC(=O)C1(c2ccc3c(c2)OC(F)(F)O3)CC1
# Effect on: cell-free assay
# Technique: competition with immobilised ligand
# Tested at: 1 µM
target,remaining binding [%]
"PIK3CA (Homo sapiens, UniProt P42336, H1047Y)",100
"STK38L (Homo sapiens, UniProt Q9Y2H1)",100
"RIOK2 (Homo sapiens, UniProt Q9BVS4)",100
"STK10 (Homo sapiens, UniProt O94804)",100
"OXSR1 (Homo sapiens, UniProt O95747)",98
"BMP2K (Homo sapiens, UniProt Q9NSY1)",100
"MINK1 (Homo sapiens, UniProt Q8N4C8)",100
"NEK10 (Homo sapiens, UniProt Q6ZWH5)",100

# Series 2
# Target: OGT, full length, His-tagged (human)
# Technique: phage display, sequencing
# Medium: in vitro
# Tested at: 1 µg OGT
# Setting: single substitutions, 15-mer displayed peptide, unchanged parent 16.7
# Relative to: input library
# Direction: higher = stronger binding
# Starting sequence: peptide; NSEYMPQYQIIFAHQ
Substitution,fold enrichment
NSEYMPQYDIIFAHQ [Q9D],1.03 fold
NSEYMPQYHIIFAHQ [Q9H],1.64 fold
NSEYMNQYQIIFAHQ [P6N],1.36 fold
NSEYMPAYQIIFAHQ [Q7A],6.19 fold
NSEYMPVYQIIFAHQ [Q7V],4.6 fold
NSEYMPQYQIIFAAQ [H14A],14.6 fold
NSEYMPQYQWIFAHQ [I10W],0.813 fold
NSEYMPQYQIIFQHQ [A13Q],27.4 fold

# Series 3
# Target: Centromere-binding protein 1, full length, N-terminal tag (CBF1, Saccharomyces cerevisiae, UniProt P17106, residues 1-351)
# Sequence of UniProt P17106 (whole entry, looked up): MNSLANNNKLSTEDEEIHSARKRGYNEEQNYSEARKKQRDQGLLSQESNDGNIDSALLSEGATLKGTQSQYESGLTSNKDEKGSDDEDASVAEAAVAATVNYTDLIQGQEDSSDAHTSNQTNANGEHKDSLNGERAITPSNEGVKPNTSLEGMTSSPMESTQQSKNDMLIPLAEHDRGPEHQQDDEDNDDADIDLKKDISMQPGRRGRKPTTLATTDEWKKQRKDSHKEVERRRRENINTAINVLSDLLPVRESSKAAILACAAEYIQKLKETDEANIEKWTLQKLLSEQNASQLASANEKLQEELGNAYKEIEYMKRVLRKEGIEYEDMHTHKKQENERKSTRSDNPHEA
# Technique: protein-binding microarray
# Form: double-stranded DNA, one strand shown
# Medium: in vitro
# Tested at: 0.8 µM
# Setting: whole 60-bp probe, no competitor
# Direction: higher = stronger binding
Sequence,fluorescence intensity
CTATGAAAACGCATGAACGTGCTGCTGACGTTCTTCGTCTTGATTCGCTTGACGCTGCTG,675 a.u.
GAACAAATATCGCGTTACGTGGTGGTGAACAGATAGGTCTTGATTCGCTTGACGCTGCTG,550 a.u.
GAAAATCAAACTTCTGGTCACATGAGTTGAACATAGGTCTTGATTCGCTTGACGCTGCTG,2660 a.u.
GAAGTCCACGCCAGTTGCGTGGCCTATTACTATTAGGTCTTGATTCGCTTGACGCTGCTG,492 a.u.
GAAACATAGCCCAAAGTCATGAGGAGAGCTTCTTAGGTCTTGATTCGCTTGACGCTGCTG,524 a.u.
CTAATTTATCCTTGTCAGTCACCTTAATAGACGTTCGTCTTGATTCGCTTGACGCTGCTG,572 a.u.
CTACGTATACGTTTAAGTGTGATTGCGCCTATTTTCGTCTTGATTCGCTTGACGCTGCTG,541 a.u.
GAATCAATTTTTGTGATCATCTTTTGTTGCAAGTAGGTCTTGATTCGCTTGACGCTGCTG,550 a.u.

# Mixed results
SMILES,technique,species,dose,setting,endpoint,result
CC(C)n1cnc(-c2ccc(F)cc2)c1-c1ncc(C(=O)Nc2ccc(N3CCN(C)CC3)cc2)[nH]1,phase 2a trial,idiopathic pulmonary fibrosis patients,60 mg once daily,adverse event grade 5,patients with decreased appetite,0%

# Some of these lines once more (series 2):
Substitution,fold enrichment
NSEYMPQYDIIFAHQ [Q9D],1.03 fold
NSEYMPQYQWIFAHQ [I10W],0.813 fold
NSEYMPQYQIIFAAQ [H14A],14.6 fold
NSEYMNQYQIIFAHQ [P6N],1.36 fold
